Experimental data of several laboratories.
A part holds a random share of what one study measured.

Sample 1 — technique: RNA Bind-n-Seq; form: RNA; matrix: in vitro; concentration: not given; reference: input RNA pool; reading: higher = stronger binding; endpoint: bound/input enrichment
Target: RING finger protein unkempt homolog, zinc fingers 1-6, GST-SBP tag (UNK, Homo sapiens, UniProt Q9C0B0, residues 30-357)
Notes: RNA with constant flanks, human and mouse sites, ends assumed
Constant ends, left off below: GGGAGUUCUACAGUCCGACGAUC … CAACAGAGGAUUGAGCAUCA
Target sequence (chain): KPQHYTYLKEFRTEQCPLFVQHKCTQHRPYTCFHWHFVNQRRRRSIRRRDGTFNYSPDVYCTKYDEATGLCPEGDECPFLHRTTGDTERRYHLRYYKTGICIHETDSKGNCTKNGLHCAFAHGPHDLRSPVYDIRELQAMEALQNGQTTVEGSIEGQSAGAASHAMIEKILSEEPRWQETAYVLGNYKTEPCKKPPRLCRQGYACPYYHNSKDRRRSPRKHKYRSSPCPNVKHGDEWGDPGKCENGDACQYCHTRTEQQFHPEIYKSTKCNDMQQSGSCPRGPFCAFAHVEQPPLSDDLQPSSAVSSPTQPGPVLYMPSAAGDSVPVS
Oligonucleotide = UGGUAACAAGAGACUGGAUGCCGCCUAUCGUUCCAUGAAUGGGAAGGGUCCCGUGUACUUACUUUUCAGUGUCAACGGCAGUGGACACUUCUGUGGAGUUGCAGAGAUGAAAUCUGCUGU; value = 0.091 ratio
Oligonucleotide = GUGACAGACAUUAAAAUUUACCCUCAGAAAAGAACUGUAGCAGUGACAAUAAUCCCUUCUAUAGUGAAUGCCAAUCAGAUAAAAGAGCUGGUUCCAGAACUCAGUUUAGAUACUGGGACA; value = 0.396 ratio
Oligonucleotide = AAGGAAAUGCUGGCCGCAAACCCUCAGGAUCGCCCUGAUGCUUUUGAACUAGAACUCAGAUUAGUCCAAAUUGCAUUUAAAGACAGCAGCUGGGAGACGUGACCUACUGCUUGCAAGCAU; value = 0.698 ratio
Oligonucleotide = AAUACAUUUGUUCCAAUGGGGAGCUUGGAAGAUGGCGUUCCCAGAAAGUAUUUUAAUAUCAAUAGACCACAGCCAAAGCCUUAAAUCAAACCCACACACAACUGAAAAUUGCCUCCUCCA; value = 1.73 ratio
Oligonucleotide = AAUAUUAAAGAAGCUGCAAGGUGGAUGGAUGAGGCCCAGGCCUUGGACACAGCAGACAGAUUUAUCAACUCCAAAUGUGCAAAAUACAUGCUAAAAGCCAACCUGAUUAAAGAAGCUGAA; value = 0.18 ratio
Oligonucleotide = GAGAGCCCCACCACCCCUCUGCUGGACGAUGUGGACGACUCUCAAGACAGCCCUAUCUUUAUGUACGCCCCUGAGUUCCAGUUCAUGCCCCCACCCACUUACACUGAGGUGGAUCCGUGC; value = 0.137 ratio
Oligonucleotide = ACAAGUAUUUUAAUUUAAGUUCAGUGAACUUUUUUGUAGCUGGGUUAAAUCUUUUUAUUUUAGUAUGGCCUUAUGGCAAAGAACACUGUAUUAUUUUAAUAAUCACACAAUUGUGACGGA; value = 3.06 ratio
Oligonucleotide = GAUGCUUUCUGAAGUUGUAUUCAUAAAAAUUAUCCCAUCUUACAGUUAAUCAGAAGAUGUUCUUACCUUUGGUUUGCCUGCCUCCUGAAACACAAACCUGCAGAUUGCCCCUAACUUCAG; value = 0.512 ratio

Sample 2 — technique: protein-binding microarray; form: double-stranded DNA, one strand shown; matrix: in vitro; concentration: 250 nM; notes: 60-bp whole probe; with: salmon DNA 0.4 mg/ml; reference: random background probes; reading: higher = stronger binding; endpoint: log fluorescence; constant ends, left off below: GCCTAGCAC … GTCTTGATTCGCTTGACGCTGCTG
Target: Interferon regulatory factor 7, full length, phosphomimetic (IRF7, Homo sapiens, UniProt Q92985, residues 1-503, S101K/S471D/S472D/S475D/S476D/S477D/S483D/S484D/S487D)
Target sequence (chain): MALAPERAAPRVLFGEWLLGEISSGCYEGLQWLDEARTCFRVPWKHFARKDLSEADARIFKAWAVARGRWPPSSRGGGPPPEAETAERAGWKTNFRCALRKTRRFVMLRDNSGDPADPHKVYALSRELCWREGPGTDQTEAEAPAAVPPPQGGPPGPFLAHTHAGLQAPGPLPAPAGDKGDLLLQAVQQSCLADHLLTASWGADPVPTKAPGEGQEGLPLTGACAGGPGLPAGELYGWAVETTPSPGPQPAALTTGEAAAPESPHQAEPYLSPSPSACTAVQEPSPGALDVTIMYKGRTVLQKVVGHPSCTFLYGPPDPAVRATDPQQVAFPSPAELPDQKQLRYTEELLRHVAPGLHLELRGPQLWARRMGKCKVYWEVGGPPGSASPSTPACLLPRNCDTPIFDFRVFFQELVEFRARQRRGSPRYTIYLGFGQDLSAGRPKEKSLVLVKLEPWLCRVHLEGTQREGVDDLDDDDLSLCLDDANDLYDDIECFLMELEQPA
Oligonucleotide = TTAGATCTCCTTTTCCTTTAGTGCTAG; value = 1.03 z-score
Oligonucleotide = TCATACATCTATGTAGAACTGTGCTAG; value = 0.0654 z-score
Oligonucleotide = TTAGGACTGGGGTATCCGTTAGTGCTA; value = -0.242 z-score
Oligonucleotide = TTAGGACTGCTTATCCTTTCGTGCTAG; value = -0.0209 z-score
Oligonucleotide = TCACTTCTGCTTCCTCAGACTGTGCTA; value = 0.729 z-score
Oligonucleotide = TTAGATATCCTACTGCTTTAGTGCTAG; value = -0.00786 z-score
Oligonucleotide = GACGGTTTCGGTCTTGGGACGTGCTAG; value = 7.9 z-score
Oligonucleotide = TTAGGTATCCTACTGCTTTCGTGCTAG; value = -0.0802 z-score
Oligonucleotide = TTAGATTTCAGTGCCGATTAGTGCTAG; value = 0.171 z-score
Oligonucleotide = TTAGGACTGGGATTTCGGTTAGTGCTA; value = 0.136 z-score
Oligonucleotide = GACGCTCTCCTTATCCTGACGTGCTAG; value = 0.402 z-score
Oligonucleotide = GACGGATTCGGGTATCGGGACGTGCTA; value = 1.09 z-score
Oligonucleotide = TTAGAACTGAGTTTAGATTAGTGCTAG; value = -0.0953 z-score
Oligonucleotide = ACTCATTTTCGTTTTGTGTCGTGCTAG; value = 10.6 z-score
Oligonucleotide = GACGGTCTCAGTATCGAGACGTGCTAG; value = 0.127 z-score
Oligonucleotide = TTAGGTATCCTCCTGCTTTAGTGCTAG; value = 0.00513 z-score
Oligonucleotide = GACAGTTTCCTTCTCCTGACGTGCTAG; value = 2.69 z-score
Oligonucleotide = TCATATATATTGTTAGTACTGTGCTAG; value = 0.512 z-score
Oligonucleotide = TTAGGTTTCAGTCTCGGTTAGTGCTAG; value = 2.92 z-score

Sample 3 — technique: protein binding microarray; form: double-stranded DNA, one strand shown; matrix: in vitro; concentration: not given; reference: not given; reading: higher = stronger binding; endpoint: E-score
Target: Histone acetyltransferase KAT6A, winged helix 1, GST fusion (KAT6A, Homo sapiens, UniProt Q92794, residues 1-85)
Notes: 8-mer, flanks averaged, mean of 2 arrays, mostly near background
Construct (chain): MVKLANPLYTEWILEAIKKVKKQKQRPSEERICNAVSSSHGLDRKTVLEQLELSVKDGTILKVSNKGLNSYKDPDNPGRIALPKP
Oligonucleotide = AATTATCG; value = -0.0464
Oligonucleotide = GCAGCTAC; value = -0.053
Oligonucleotide = CCCCGCCA; value = 0.354
Oligonucleotide = AACGCGTT; value = 0.31
Oligonucleotide = CGCTCTGC; value = 0.187
Oligonucleotide = ACCGAACG; value = 0.0828
Oligonucleotide = ACGTTTAA; value = -0.183
Oligonucleotide = GACTAGAC; value = -0.11
Oligonucleotide = GCGGATAC; value = 0.317
Oligonucleotide = ACTGTCAC; value = -0.115
Oligonucleotide = ATTTGCTG; value = -0.126
Oligonucleotide = ACCTCACG; value = -0.0803
Oligonucleotide = CGAGTCCG; value = 0.354
Oligonucleotide = GACAGTTA; value = -0.019
Oligonucleotide = GAAACCTC; value = -0.122
Oligonucleotide = CGTGGTTA; value = -0.0571
Oligonucleotide = ATGTTGCC; value = 0.0568
Oligonucleotide = TTCAGGAA; value = -0.235
Oligonucleotide = AGGGTCAG; value = -0.156
Oligonucleotide = CGCCTGAC; value = 0.163
Oligonucleotide = CCTCCTGA; value = -0.153
Oligonucleotide = TCCAAGAA; value = -0.139
Oligonucleotide = CATCTTCG; value = 0.0413
Oligonucleotide = CTCCGCTC; value = 0.0712
Oligonucleotide = CACGGCTC; value = 0.308

Sample 4 — technique: RNA Bind-n-Seq; form: RNA; matrix: in vitro; concentration: 365 nM; reference: no-protein control; reading: higher = stronger binding; endpoint: RBNS enrichment (R)
Target: RNA binding protein fox-1 homolog 2, RRM domain, GST-SBP tag (RBFOX2, Homo sapiens, UniProt O43251-10, residues 100-194)
Notes: natural RNA segment, single round, ends assumed
Constant ends, left off below: GGGAGUUCUACAGUCCGACGAUC … UGGAAUUCUCGGGUGCCAA
Residues (chain): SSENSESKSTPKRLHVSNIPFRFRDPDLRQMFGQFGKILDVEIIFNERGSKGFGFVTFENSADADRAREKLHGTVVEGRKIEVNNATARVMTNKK
Oligonucleotide = UUAAUAUGGUCCAAUUGCUUUUCUUUUUAACGUGACAAAAAGAGAAUAAGGAACAAACACUAUUGCUGCCGAAUGCCAUAACACUGAGUUGUACAAAUUGUGAUUGAGGA; value = 1.39
Oligonucleotide = CCAGGAUGGAUAAAUCCACCGAGAUAAGGGUUUUGGUCACUGUCUCCACCUCAGUUCCUCAGGGCUGUUGGCCACCCUAUGACUAACUGGAAGAGGACACGCCAGAGCUU; value = 0.441
Oligonucleotide = CGUUUAUGUUGGUCGCAUCAAACAGCUUGUGGGAUUGUUUCCUCUUCUGUACAUGUUUUCCCCUUUGGUGAUACCCAGUGGUCCCAGCUAAUGGUGUCUGAGCAUAGUCA; value = 1.27
Oligonucleotide = UAAAAAAAUUACACUGACUACUGGUGGCUUAGUACUUUAUGUUGUCUCUCACCUAAAUAGUUCCACUUUCUGCAUUAGGAGAAAACUGCUCCCCUCCCCAAGUAUUUUAG; value = 0.65
Oligonucleotide = GGAGGUUGGCUGCCCUGAGGAAUUAGCACGUCCGUGGCAGCUGCUGCCUCCCUUGUCCUGUGAUUGUUCUGGAGGCUUCUGCCCAACUGCUUCACUUUCUCCAACCCUUC; value = 1.18
Oligonucleotide = AUGUAUUCUUCAGUUUUCCCACUUCUCAGUGUCUUCACUCUAAGGACUUUUCCUGUCACUGUGAACUUUGCUGGUUAUCUGCCUUCAAUUUUUGGACCACAAACCACCCU; value = 0.25
Oligonucleotide = GGUCUGUGGUCACUCUCCACCUUGUCCUAGUGUUGCCAUGGUAGCAUGGCUUUGUAGUUUGCAUUUAACCUGGGGAUCUAUGCAUCCUGUCAAGAGGGUGGGUCCCCAUC; value = 2.32
Oligonucleotide = UAUUGAUUCUUCCUACCCAAGAGCAUGGAAUGUUCUUCCAUUUGUUUGUAUCCUCUUUUAUUUCCUUGAGCAGUAGCUUGUAGUUCUCCUUGAAGAGGUCCUUCACAUCC; value = 3.57

Some of these lines once more (sample 3):
Oligonucleotide = GCAGCTAC; value = -0.053
Oligonucleotide = ATGTTGCC; value = 0.0568
Oligonucleotide = GAAACCTC; value = -0.122
Oligonucleotide = ATTTGCTG; value = -0.126
Oligonucleotide = ACGTTTAA; value = -0.183
Oligonucleotide = CGAGTCCG; value = 0.354
Oligonucleotide = CGCTCTGC; value = 0.187
